# Measurements pooled from the literature.
# A part holds a random share of what one study measured. Positions count from the first letter of the parent shown.

# Series 1 — target: CCNA1, cyclin fold, Cln2 fusion (human); method: yeast growth competition, sequencing; matrix: yeast; setting: weak parent motif; reference: not given; direction: higher = stronger binding
# Starting sequence: GMNC docking peptide (human); KNAKRNLSSEFAN
Variant,normalised enrichment score
KNAKRNLSSEFGN [A12G],0.226
KNAKRNLSSESAN [F11S],0.524
KNAKRNLSSEFIN [A12I],0.716
KAAKRNLSSEFAN [N2A],0.405
KNAKRNQSSEFAN [L7Q],0.155
KNAKCNLSSEFAN [R5C],-0.127
KNAKRLLSSEFAN [N6L],-0.111
KNAKRFLSSEFAN [N6F],-0.29
KNAKRNLSSECAN [F11C],-0.0446
KNAKRQLSSEFAN [N6Q],0.0996
KNRKRNLSSEFAN [A3R],0.179
KNAKRNLSSDFAN [E10D],-0.128
KNAKRNLSSEFLN [A12L],0.227
KNAKRNLLSEFAN [S8L],0.775
KNAKRNLSSEAAN [F11A],0.525
KNAKRVLSSEFAN [N6V],0.301
KNAKRNTSSEFAN [L7T],0.558
KNAKRNLSSTFAN [E10T],-0.000443
KNAKRNLSREFAN [S9R],0.766

# Series 2 — method: universal PBM; molecule type: double-stranded DNA, one strand shown; matrix: in vitro; tested at: not given; direction: higher = stronger binding
# Target: Sal-like protein 4, full length isoform B (SALL4, Homo sapiens, UniProt Q9UJQ4-2, residues 1-616)
# Setting: 8-mer, flanks averaged, mean of replicates
Sequence,E-score
CGTGCCAA,-0.261
GCATGCTA,-0.0586
CTTCTATA,0.239
CCGGAGAG,-0.273
CGAAAGCA,-0.0197
GACACGCA,-0.0317
GGTGCATA,0.0442
GCCCTGAA,-0.133
ACAGTGTA,0.147
ACAGATAG,0.0989
AGGATTGA,0.152
ACTGCAAA,0.132
CAGAAGGC,-0.224
TAACGTAA,0.224
AGTGGACA,0.021
ACTTATCA,0.101
AACTTCAC,0.121
GCTCTTCA,-0.209
GAAGCCAC,-0.0741
CGCGACCA,-0.267
CCTCCACC,-0.198
GTCCGGTA,-0.118
CACTCTAG,-0.0244
AGCCCTCA,-0.138

# Series 3 — method: DHFR PCA, deep sequencing; matrix: yeast; added: (+)-ABA 200 µM; reference: wild-type fitted maximum; direction: higher = stronger binding
# Target: ABI1, truncated, D143A, DHFR fusion (Arabidopsis thaliana)
# Setting: methotrexate growth selection, single substitutions
# Starting sequence: PYL1, truncated, DHFR fusion (Arabidopsis thaliana); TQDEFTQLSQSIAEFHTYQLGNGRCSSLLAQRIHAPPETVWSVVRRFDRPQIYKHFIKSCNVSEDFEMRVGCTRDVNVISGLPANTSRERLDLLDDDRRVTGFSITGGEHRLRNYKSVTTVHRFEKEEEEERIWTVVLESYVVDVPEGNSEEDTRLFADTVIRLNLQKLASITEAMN
Variant,relative binding score [%]
V100E,9.09
V100C,99.6
G108N,48
V161T,36.8
S27A,92.6
N177F,104
A35C,91.2
M68C,98.3
C25Q,58.2
R98L,102
F157A,7.01
R99L,111
E38N,91.6
F103I,58
N85A,109
L164K,90.9
S26K,90.6
E64P,104

# Series 4 — method: protein-binding microarray; molecule type: double-stranded DNA, one strand shown; matrix: in vitro; tested at: 2540 nM top; setting: 60-bp whole probe; added: salmon DNA 0.4 mg/ml; reference: random background probes; direction: higher = stronger binding; all sequences stand within: GCCTAGCAC … GTCTTGATTCGCTTGACGCTGCTG
# Target: Interferon regulatory factor 3, full length, phosphomimetic (IRF3, Homo sapiens, UniProt Q14653, residues 1-427, S386D/S396D/S398D/S402D/T404D/S405D)
# Residues (chain): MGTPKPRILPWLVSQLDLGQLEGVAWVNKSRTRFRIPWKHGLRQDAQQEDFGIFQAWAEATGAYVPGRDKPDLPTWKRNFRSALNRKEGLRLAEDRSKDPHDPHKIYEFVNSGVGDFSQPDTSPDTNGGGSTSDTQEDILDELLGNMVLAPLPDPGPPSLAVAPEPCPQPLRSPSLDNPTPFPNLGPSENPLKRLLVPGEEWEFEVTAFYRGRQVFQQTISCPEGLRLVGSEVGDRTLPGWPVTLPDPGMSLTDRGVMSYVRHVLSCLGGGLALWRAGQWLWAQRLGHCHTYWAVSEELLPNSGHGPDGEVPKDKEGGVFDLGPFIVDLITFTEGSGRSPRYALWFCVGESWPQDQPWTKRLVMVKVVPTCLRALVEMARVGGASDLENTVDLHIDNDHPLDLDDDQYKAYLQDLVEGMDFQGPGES
Sequence,fitted relative affinity [z-score]
GACGATTTCGGGACTGGACACGTGCTA,1.82
TTAGGACTACTTCTCCTTTAGTGCTAG,0.653
GACGTTATCCTTTTCCTGACGTGCTAG,4.94
TCAGACTTGATTTTGGTACTGTGCTAG,0.155
TCAATCTTATGATATATAACTGTGCTA,0.417
TACGAACTGGGGTATCGAGACGTGCTA,-0.462
GACGGACTGCTTCTTCTGACGTGCTAG,-0.29
TGGTATTTTTTTCTAATTGAGTGCTAG,1.03
GACGATTTTAGTATCGAGACGTGCTAG,1.17
TTAGGTCTGGGGACTGGGTTAGTGCTA,-1.06
TTAGGTTTCCTTTCCCTTTGGTGCTAG,10.6
AGTGGCCCAGGGCATCCCCTGTGCTAG,-1.18
GACGAACTGGGGGTTCGAGACGTGCTA,-0.477
TTAGATATCGGAACTGGATTAGTGCTA,1.04
TCACAGTTGAGTTCTGTTACTGTGCTA,0.0647
TTAGATCTCAGACTGAATTAGTGCTAG,0.143
TTATGTATCGGACTGGGTTAGTGCTAG,1.16
GACGAACTGAGTCTCGAGGCGTGCTAG,-0.454
TTAGGTTTCCTGCTGCTTTAGTGCTAG,2.41
TTAGAACTGGGGACTGGATCAGTGCTA,-0.799
TTAGGTTTCCTTATCCTTTCGTGCTAG,8.19
TTAGATTTCAGTATGGATTAGTGCTAG,0.914
AACGATCTCAGTCTCGAGACGTGCTAG,0.685
AACGATTTCAGTTTCGAGACGTGCTAG,4.67

# Series 5 — method: protein binding microarray; molecule type: double-stranded DNA, one strand shown; matrix: in vitro; tested at: not given; reference: not given; direction: higher = stronger binding
# Target: Histone acetyltransferase KAT6A, both winged helices, GST fusion (KAT6A, Homo sapiens, UniProt Q92794, residues 1-181)
# Setting: 8-mer, flanks averaged, mean of 2 arrays, mostly near background
# Target sequence (chain): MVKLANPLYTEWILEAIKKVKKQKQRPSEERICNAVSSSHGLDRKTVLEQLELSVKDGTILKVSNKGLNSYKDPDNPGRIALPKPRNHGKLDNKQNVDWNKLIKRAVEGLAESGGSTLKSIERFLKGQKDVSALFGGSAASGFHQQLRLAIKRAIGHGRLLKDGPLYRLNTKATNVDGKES
Sequence,E-score
GGGGGTTA,-0.19
CTTGGCTC,-0.215
AGAGCATA,-0.128
ACTGACAC,-0.0768
ACACGTCA,-0.072
AACCATCT,-0.0452
ACTCATAT,-0.00371
CCGCTCCG,0.301
CGGACAAA,0.124
GTCGTCAC,0.0357
CACGTAAA,-0.00434
CGCCATCC,0.0597
CCAATGAG,-0.128
AAATTCTT,-0.0619
GATCGCAC,0.141
AGCTGTTA,-0.0469

# Excerpt of the above (series 2):
Sequence,E-score
CGTGCCAA,-0.261
AGTGGACA,0.021
GCTCTTCA,-0.209
AGGATTGA,0.152
CTTCTATA,0.239
GCATGCTA,-0.0586
ACAGATAG,0.0989
CACTCTAG,-0.0244
CAGAAGGC,-0.224
GGTGCATA,0.0442
GCCCTGAA,-0.133
CGAAAGCA,-0.0197
TAACGTAA,0.224
GACACGCA,-0.0317
ACTGCAAA,0.132
